Experimental data pooled from the literature.
Lines come from different studies, so protocols differ. “And” joins repeats or separate records; there may be more than shown. ± marks the error that the study gave.

SMILES | tested on | assay | system | setting | how to read | quantity | value
COc1cccc(-c2ccc(CN3CCCC(c4nc5ccc(C)cc5c(=O)[nH]4)C3)cc2)c1 (stereo not drawn) | SARS-CoV-2 | cytopathic effect | USA_WA1/2020 | round 2, 5-point | – | maximum response | 100%
Cn1cnc(Cn2c(=O)[nH]/c(=N\c3cc4cn(C)nc4cc3Cl)n(Cc3cc(F)c(F)cc3F)c2=O)n1 | – | – | human, mild renal impairment | oral, 375 mg, hypertriglyceridaemia TEAE, Moderate severity | – | patients with adverse event | 12.5%
Nc1ccn(C[C@@H](CO)OCP(=O)(O)O)c(=O)n1 | vaccinia virus | viral replication | HEL | – | – | EC50 | 22 µM
CC[C@@H]([C@H](C)O)n1ncn(-c2ccc(N3CCN(c4ccc(OC[C@@H]5CO[C@@](Cn6cncn6)(c6ccc(F)cc6F)C5)cc4)CC3)cc2)c1=O | SARS-CoV-2 | viral replication, GFP plate reader screen | – | cell-based | – | EC50 | > 100 µM
COc1ccc2c(Sc3ccc(Cl)cc3)c(C(=O)NCCCN3CCCCC3)[nH]c2c1 | SARS-CoV-2 | cytopathic effect | USA_WA1/2020 | round 2, 5-point | – | efficacy | 110%
NC(=O)c1ncn([C@@H]2O[C@H](CO)[C@@H](O)[C@H]2O)n1 | yellow fever virus | viral replication | BHK-21 | 72 h | – | EC50 | 15 µM
O=C(NCC1CCOC2(CCN(C(=O)C3(c4ccccc4)CCCC3)CC2)C1)C1CC1 (stereo not drawn) | Venezuelan equine encephalitis virus | viral replication | – | – | – | EC50 | > 39.8 µM
Clc1ccc(C(c2ccccc2)N2CCN(C/C=C/c3ccccc3)CC2)cc1 (stereo not drawn) | SARS-CoV-2 | viral replication, high-content imaging screen | – | cell-based | – | EC50 | 20.9 µM
O=C(N1CCC2(CC1)C[C@@H](CN1CCCCS1(=O)=O)CCO2)C1(c2ccccc2)CCCC1 | Powassan virus | viral replication | – | – | – | EC50 | > 32 µM
CC(CN1c2ccccc2Sc2ccccc21)N(C)C (stereo not drawn) | SARS-CoV-2 | viral replication, high-content imaging screen | – | cell-based | – | EC50 | > 100 µM
COc1ccc(NC(=O)NCC2CCOC3(CCN(C(=O)C4(c5ccccc5)CCCC4)CC3)C2)cc1 (stereo not drawn) | Venezuelan equine encephalitis virus | viral replication | – | – | – | EC50 | > 39.8 µM
CNC(=O)[C@@H](NC(=O)[C@H](CC(C)C)[C@H](O)C(=O)NO)C(C)(C)C | Daboia russelii venom proteases (SVMP) | protease activity, inhibitor | MP population | 0.01 µM, added: azocasein substrate | baseline: venom alone | remaining activity | 96.4% and 93% and 97.5%
Cc1cccc(C2(C(=O)N3CCC4(CC3)CC(CNS(=O)(=O)N(C)C)CCO4)CCCC2)c1 (stereo not drawn) | Venezuelan equine encephalitis virus | viral replication | – | – | – | EC50 | 12.6 µM
COc1cc(C(=O)OCCN2CCN(CCCN3c4ccccc4Sc4ccc(Cl)cc43)CC2)cc(OC)c1OC | SARS-CoV-2 | viral replication, high-content imaging screen | – | cell-based | – | EC50 | > 100 µM
Cc1ccnc(NC2CCOC3(CCN(C(=O)C4(c5ccccc5)CCCC4)CC3)C2)c1 (stereo not drawn) | Venezuelan equine encephalitis virus | viral replication | – | – | – | EC50 | > 39.8 µM
O=C1c2c(O)c(=O)ccn2N([C@@H]2c3ccccc3SCc3c2ccc(F)c3F)[C@@H]2COCCN12 | Influenza A virus | viral replication | A(H5N8) A/gull/Delaware/486/2018 | mean | – | EC50 | 0.0004 ± 5e-05 µM
CC[C@H](C)[C@H](NC(=O)[C@H](CC(C)C)NC(=O)[C@H](Cc1c[nH]c2ccccc12)NC(=O)[C@H](CCC(N)=O)NC(=O)[C@@H](NC(=O)[C@H](Cc1ccccc1)NC(=O)[C@H](C)NC(=O)[C@H](CCCCNC(=O)COCCOCCNC(=O)COCCOCCNC(=O)CC[C@H](NC(=O)CCCCCCCCCCCCCCCCCCC(=O)O)C(=O)O)NC(=O)[C@H](CCC(N)=O)NC(=O)[C@H](C)NC(=O)[C@@H](NC(=O)[C@H](CCCCN)NC(=O)[C@H](CC(=O)O)NC(=O)[C@H](CC(C)C)NC(=O)C(C)(C)NC(=O)[C@@H](NC(=O)[C@H](CO)NC(=O)[C@H](Cc1ccc(O)cc1)NC(=O)[C@H](CC(=O)O)NC(=O)[C@H](CO)NC(=O)[C@@H](NC(=O)[C@H](Cc1ccccc1)NC(=O)[C@@H](NC(=O)CNC(=O)[C@H](CCC(=O)O)NC(=O)C(C)(C)NC(=O)[C@@H](N)Cc1ccc(O)cc1)[C@@H](C)O)[C@@H](C)O)[C@@H](C)CC)[C@@H](C)CC)C(C)C)C(=O)N[C@@H](C)C(=O)NCC(=O)NCC(=O)N1CCC[C@H]1C(=O)N[C@@H](CO)C(=O)N[C@@H](CO)C(=O)NCC(=O)N[C@@H](C)C(=O)N1CCC[C@H]1C(=O)N1CCC[C@H]1C(=O)N1CCC[C@H]1C(=O)N[C@@H](CO)C(N)=O | – | item: Diarrhoea | healthy subjects | 5/5/8/10 mg titrated, multiple ascending dose | – | subjects with adverse events | 28.6%
Nc1ncnc2c([C@@H]3N[C@H](CO)[C@@H](O)[C@H]3O)c[nH]c12 | Middle East respiratory syndrome-related coronavirus | viral replication | Vero C1008, Jordan N3 | 0.8 µM | – | inhibition | 6%

Excerpt of the above:
SMILES | tested on | assay | system | setting | how to read | quantity | value
O=C(N1CCC2(CC1)C[C@@H](CN1CCCCS1(=O)=O)CCO2)C1(c2ccccc2)CCCC1 | Powassan virus | viral replication | – | – | – | EC50 | > 32 µM
CC(CN1c2ccccc2Sc2ccccc21)N(C)C (stereo not drawn) | SARS-CoV-2 | viral replication, high-content imaging screen | – | cell-based | – | EC50 | > 100 µM
COc1ccc(NC(=O)NCC2CCOC3(CCN(C(=O)C4(c5ccccc5)CCCC4)CC3)C2)cc1 (stereo not drawn) | Venezuelan equine encephalitis virus | viral replication | – | – | – | EC50 | > 39.8 µM
